Results gathered from unrelated publications.
Parts stem from different laboratories: compare values within a part only.

Sample 1
Target: Interferon regulatory factor 5, full length, phosphomimetic (IRF5, Homo sapiens, UniProt Q13568-2, residues 1-514, S451D/S453D/S456D/S462D)
Technique: protein-binding microarray
Form: double-stranded DNA, one strand shown
Medium: in vitro
Tested at: 940 nM top
Notes: 60-bp whole probe
With: salmon DNA 0.4 mg/ml
Relative to: random background probes
Direction: higher = stronger binding
All sequences stand within: GCCTAGCAC … GTCTTGATTCGCTTGACGCTGCTG
Strand	fitted relative affinity [z-score]
CTGGAGGTTGGGCAAGGCCCGTGCTAG	-0.765
GACGGTTTCGCGTTTCGGGACGTGCTA	4.38
GCTCCTTTTAATTTTTAACGGTGCTAG	0.667
TTAGGTATCCTAATCCTTTAGTGCTAG	-0.104
TTAGGACTTGACTATCGGTTAGTGCTA	-0.0914
TTAGGACTGCTACTGCTTTGGTGCTAG	-0.425
TTACATATCGGGTATCGATTAGTGCTA	3.36
ACAAGTTTCTCCTTTCCAAAGTGCTAG	3.78
TCAAAAATCTTTGTTGGAACTGTGCTA	-0.137
GACGATTTCAGCCTCGAGACGTGCTAG	0.0348
TCTTCCTTTACTTTCTTTTTGTGCTAG	3.27
TGAGATATCAGTCTCGATTAGTGCTAG	2.49
TTAGAACTGGGGACAGGATTAGTGCTA	0.189
TCATTTTACATTATTACACTGTGCTAG	1.21
GACGAATTCAGTTTCGAGACGTGCTAG	4.35
TTAGGACTGGACTATCGGATAGTGCTA	-0.273
TTTGTTTCCATTTTCTGAATGTGCTAG	1.71
TCACTTTCCACTTGTCTTTTCGTGCTA	2.36
GACGGTCTCCTTTACCTGACGTGCTAG	0.548
CCATACTTCCCACTGGTCTTGTGCTAG	0.847
GTAGATATCGGGTTTCGATTAGTGCTA	4.93
TAAGGTTTCCAATCAGCCCCGTGCTAG	-0.00582
TTAGATTTCAGACTCGATTAGTGCTAG	0.218
TTAGCTTCCAGTTTCGATTAGTGCTAG	8.39
TCATCCTTTACTTTCTTACTGTGCTAG	1.64

Sample 2
Target: RNA binding protein fox-1 homolog 2, RRM domain, GST-SBP tag (RBFOX2, Homo sapiens, UniProt O43251-10, residues 100-194)
Technique: RNA Bind-n-Seq
Form: RNA
Medium: in vitro
Tested at: 365 nM
Notes: natural RNA segment, single round, ends assumed
Relative to: no-protein control
Direction: higher = stronger binding
Construct (chain): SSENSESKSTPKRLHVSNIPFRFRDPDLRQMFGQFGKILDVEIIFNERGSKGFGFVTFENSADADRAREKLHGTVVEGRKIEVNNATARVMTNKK
Strand	RBNS enrichment (R)
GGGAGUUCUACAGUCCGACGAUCUCUUUUCGUGUUCUCAGUGUAUUAUGUACGUGUGUGCUGUUGCCGCUAUGAGGGCUCGGGGCUUGCAGGCUCUGAGGGCAUGUCGCAGGCGAGCUGGAAGGAAGCGCUCUUGGAAUUCUCGGGUGCCAA	2.42
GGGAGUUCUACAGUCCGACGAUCCGGCCUGGCAUGCAGCUUGUCCUUGCUCCUGGAACCUGGCAGGCCCUGCCCAGCCAGCCAUCGGAAGAGAGGGCUGAGCCAUGGGGGUUUGGGGCUAAGAAGUUCACCAGUGGAAUUCUCGGGUGCCAA	2.67
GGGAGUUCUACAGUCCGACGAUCUGAUCAUAUAUGCAUACGUUUCUUUACAGCAGAGGAAACCAUUGUCCACAAAACUGAUGUUCUUUUGGGGUUUUAUGUACAGACUUGUCCAAUCAUGUGUGUGGUUCCUGUGGAAUUCUCGGGUGCCAA	0.444
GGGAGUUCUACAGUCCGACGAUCUAGCGUGUUCAUUCAGAUAAUGUUUUCUUACUAGGAAUUACAAACUUAAAACAUUUUUCAACCUUUAACAUAUUUUGUAAAAACUUAGGGGAGUCAAUUCCUCCAUUUUUUGGAAUUCUCGGGUGCCAA	0.79
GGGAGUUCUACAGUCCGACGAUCCCAUGGCAUAUGACAAAGACCAAUGAGGGACCAGGAAAAAAAGUGAUGUCCCCUUUCCCUGCCACCUCCAGCCUCUGCCAGCAAUGAGCUGUCCCCCUCCCACCCUACACUGGAAUUCUCGGGUGCCAA	1.23
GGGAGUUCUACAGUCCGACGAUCACCUAAGCACUAAACUCUCUUGAGAGACUUCUGUUGCUAAGAAGACCGCAGCUUCUGGAGCCAGGGGUGCAGACCCUUCCAGAGUUCCCAGACCGUGUGACACAGCACAGUGGAAUUCUCGGGUGCCAA	0.22
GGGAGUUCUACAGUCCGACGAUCAAAUUCCAUUUCAUCGGGAUGGAACUGAAGGAUUUUAUUCUAUAAAGCGGCCCUGGUUGAAUCUGGCAAUUCUUUUUGCCAAGAUCCCUAGCAGAAGAUUUAGCCAUGUCUGGAAUUCUCGGGUGCCAA	0.271
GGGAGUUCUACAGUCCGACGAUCGUGCCAGGGCUGUGGGAGGGGCAAGCUACGGCCUGGGCUAGGUGAGCUGCCUCUGCCCCUGGGCAAGGAAGCGAGGCCCUCUGGGAGGAGGGUGCUUAGCUCCAGAGCAGUGGAAUUCUCGGGUGCCAA	0.518
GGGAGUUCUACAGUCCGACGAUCGUGUGAAUUUUCUUUAAAAAACUUAAGGAGUCUUUGCUACCUUCUGCUUGUUGAGUUGUUUUGGCAUUCAUAUUAAAAGCCAGCAUCUCACUAUUUAUUGACAGGUUGGGUGGAAUUCUCGGGUGCCAA	0.835
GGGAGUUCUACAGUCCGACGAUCUGUGAAUUGCUUGGUUGUAAUUAAAUUCUGAGCCUGAUAUUGAUAUGGUUUUAAGAAGCAGUUGUACCAAGUGAAAUUAUUUUGGAGAUUAUAAUAAAUAUAUACAUUCAUGGAAUUCUCGGGUGCCAA	0.696
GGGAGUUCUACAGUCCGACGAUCUGGGGGCACCCCCUCUCCCUGGGAUAGCCACUGUCGGGGAGCACAGGACCAGCCUCUGGAUCAGUCCCUCUCUGCCCCUUCACUUCUGUCUCUAGCUCACUGGCUCUGUGUGGAAUUCUCGGGUGCCAA	0.631
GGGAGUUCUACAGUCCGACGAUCUUGCUACAUAUUAGAAUCAUCUGGGAGGUUUUAAACAAAUUCUGAUGCCCAGGUUGCACCCCAUGCCAAUGAAAUCAUUUCUGGGCGUCAGCGCCAGGCAGUUGUAUUUUUGGAAUUCUCGGGUGCCAA	0.587

Sample 3
Target: Sal-like protein 4, full length isoform A (SALL4, Homo sapiens, UniProt Q9UJQ4, residues 1-1053)
Sequence of UniProt Q9UJQ4 (whole entry, looked up): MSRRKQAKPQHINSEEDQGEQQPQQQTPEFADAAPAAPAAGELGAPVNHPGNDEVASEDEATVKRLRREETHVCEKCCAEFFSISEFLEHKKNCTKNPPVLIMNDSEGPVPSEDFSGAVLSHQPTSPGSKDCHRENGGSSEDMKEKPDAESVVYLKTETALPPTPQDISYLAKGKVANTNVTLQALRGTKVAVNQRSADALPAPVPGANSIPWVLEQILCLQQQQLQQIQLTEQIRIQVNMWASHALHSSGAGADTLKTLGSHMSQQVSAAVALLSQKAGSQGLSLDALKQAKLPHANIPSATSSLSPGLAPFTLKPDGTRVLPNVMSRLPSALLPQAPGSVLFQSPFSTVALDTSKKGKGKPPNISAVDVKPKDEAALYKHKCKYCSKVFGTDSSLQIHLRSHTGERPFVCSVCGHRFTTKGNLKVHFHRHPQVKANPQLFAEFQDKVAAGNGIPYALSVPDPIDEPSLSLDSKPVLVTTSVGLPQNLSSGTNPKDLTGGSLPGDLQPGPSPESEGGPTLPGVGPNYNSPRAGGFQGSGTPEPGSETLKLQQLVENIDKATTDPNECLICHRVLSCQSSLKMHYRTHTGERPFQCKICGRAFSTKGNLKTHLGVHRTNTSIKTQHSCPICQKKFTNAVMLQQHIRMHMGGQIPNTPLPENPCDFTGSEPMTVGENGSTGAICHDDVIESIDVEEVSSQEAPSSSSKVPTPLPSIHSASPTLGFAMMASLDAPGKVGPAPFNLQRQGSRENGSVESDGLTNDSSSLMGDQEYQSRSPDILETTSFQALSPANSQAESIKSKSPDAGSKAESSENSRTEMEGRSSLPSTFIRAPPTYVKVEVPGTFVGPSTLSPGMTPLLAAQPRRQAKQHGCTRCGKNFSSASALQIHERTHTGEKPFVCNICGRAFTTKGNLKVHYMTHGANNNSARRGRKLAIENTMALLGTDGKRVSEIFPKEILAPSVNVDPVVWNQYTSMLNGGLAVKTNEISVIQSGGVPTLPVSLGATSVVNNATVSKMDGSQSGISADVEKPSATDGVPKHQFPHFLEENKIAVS
Technique: universal PBM
Form: double-stranded DNA, one strand shown
Medium: in vitro
Tested at: 600 nM
Notes: 8-mer, flanks averaged, mean of replicates
Direction: higher = stronger binding
Strand	E-score
ACCTACAA	0.237
ACCGGTTA	-0.0261
CTAGTTCC	0.026
ATTTCGCA	0.105
AGAGCTGA	-0.0484
GGGTTACC	-0.284
AGATTGGG	0.17
ACGCGCAC	-0.259
ACAGTGAG	-0.0237
ACTCTGGG	-0.216
TCCTCGCA	-0.128
CAAGGTCG	-0.133
AGAAGAAG	-0.0413
GCACATGC	-0.123
CACCTCTA	0.00404
ACAGCCCC	-0.32
AAAGGACC	-0.225
AGTACTTA	0.111
CATCTAAG	-0.102
ATGGACCG	-0.185
CACGGCAA	-0.072
GATTGCTA	0.022
CCATCTTA	-0.0633
GGCTAGTA	0.00259
AGGTTAGC	-0.18

Sample 4
Target: Histone acetyltransferase KAT6A, both winged helices, GST fusion (KAT6A, Homo sapiens, UniProt Q92794, residues 1-181)
Technique: protein binding microarray
Form: double-stranded DNA, one strand shown
Medium: in vitro
Tested at: not given
Notes: 8-mer, flanks averaged, mean of 2 arrays, mostly near background
Relative to: not given
Direction: higher = stronger binding
Target sequence (chain): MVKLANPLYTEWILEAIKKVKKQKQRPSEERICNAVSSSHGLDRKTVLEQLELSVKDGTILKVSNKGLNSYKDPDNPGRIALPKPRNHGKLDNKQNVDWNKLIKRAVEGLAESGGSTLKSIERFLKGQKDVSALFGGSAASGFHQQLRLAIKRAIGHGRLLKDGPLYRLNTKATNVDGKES
Strand	E-score
CATCCGGA	0.0582
CCCAGTTA	-0.13
ATCCGTGA	0.211
AAACAAGG	-0.171
GATAAGGA	-0.0541
CCGATGAA	0.0853
CCGTGTAG	0.116
ATGACGGG	0.269
ACGGTACG	0.307
GTTATTGA	0.0049
GCCTATCA	-0.106
GGCAGTAC	-0.0762
ACCTTGAG	-0.0584
TCCACGCA	0.0386
ATAGTGCC	-0.016
GACCGGAC	0.153
CAAGTTAG	-0.0694

A few entries again (sample 4):
Strand	E-score
CCGATGAA	0.0853
CCGTGTAG	0.116
ATGACGGG	0.269
ACGGTACG	0.307
GTTATTGA	0.0049
GCCTATCA	-0.106
GGCAGTAC	-0.0762
ACCTTGAG	-0.0584
TCCACGCA	0.0386
ATAGTGCC	-0.016
